Assay results pooled from the literature.
Numbered parts are unrelated; each lists some results of a single study. Positions count from the first letter of the parent shown.

Sample 1 — method: competition protein-binding microarray; molecule type: double-stranded DNA, one strand shown; matrix: in vitro; tested at: 2 µM; added: Pho4 competitor, 0.05 µM; reading: higher = stronger binding; endpoint: fluorescence intensity; shared flanks, not repeated: … GTCTTGATTCGCTTGACGCTGCTG
Target: Centromere-binding protein 1, full length, His-tagged (CBF1, Saccharomyces cerevisiae, UniProt P17106, residues 1-351)
UniProt P17106, sequence (whole entry, looked up): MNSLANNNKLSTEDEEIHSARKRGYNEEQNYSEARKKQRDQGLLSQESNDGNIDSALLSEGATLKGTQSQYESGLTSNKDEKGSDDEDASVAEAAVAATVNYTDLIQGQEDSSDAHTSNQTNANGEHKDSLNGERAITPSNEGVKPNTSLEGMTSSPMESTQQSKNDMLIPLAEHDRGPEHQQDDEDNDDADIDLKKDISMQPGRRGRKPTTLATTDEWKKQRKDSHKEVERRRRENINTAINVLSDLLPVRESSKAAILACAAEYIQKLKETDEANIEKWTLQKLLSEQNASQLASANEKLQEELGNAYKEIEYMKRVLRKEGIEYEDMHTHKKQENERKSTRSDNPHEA
Setting: whole 60-bp probe, lowest competitor level
Strand = CTGTTACTTACACTGAACACGCCAAGAGAAAGACTG; value = 85.4 a.u.
Strand = GAAGAAAATCGCTCCCGCGTGTCCACTGGACTTTGC; value = 78.5 a.u.
Strand = CGTCCTAGTGATTGTCACTGCACTTCCATGAGGAAG; value = 96.9 a.u.
Strand = TTCACCAGCGTTCCACACGTGTCGGCCATATCGTCA; value = 572 a.u.
Strand = GAGAGGACAAGGGATGACATGGCCGACGTTATAAGG; value = 56.6 a.u.
Strand = ATATACAAACTCCATCACGGGATCGATGTGGCTAAG; value = 731 a.u.
Strand = CTAACGAAGGTTTGAGGTGTGGGTGACAAGCCAAGT; value = 64.7 a.u.
Strand = CGGGCTTGTCTCAGGCTCGTGTGGACCGCACTGTAA; value = 51.1 a.u.
Strand = GCGCTTGTCGCTCGGCACGATGCCAGTGCGGAGTTT; value = 70 a.u.
Strand = CTAACGAAGGTTTGTCACAAAACTTACAAGCCAAGT; value = 77.4 a.u.
Strand = CCAAAGCCCTCGAAACGCGTGTTCCTCTCAGCGGCA; value = 65.9 a.u.
Strand = CTCAATGGAATCCGTCATGCTCGGTAAGTGAGTCTC; value = 61.3 a.u.
Strand = CGTCACTAGTACTATCACCTGAAAACATGCTTCCAA; value = 101 a.u.
Strand = GCTGGAAGATAGCTTCACGTGGAACATTCCTGACTG; value = 540 a.u.
Strand = CTTTCCCGATCTTGTTCGGTGGGTGTAGCACATTTG; value = 66.3 a.u.
Strand = GTCTTGTCTCATTGTCACCTTACTTTCCCCACTTCA; value = 76.2 a.u.
Strand = CCGCGAGTTCGTAGGCACGTTAGTTGGTTTCGACGA; value = 71.1 a.u.

Sample 2 — method: aptamer microarray, sandwich; molecule type: DNA with 2'F-ANA; matrix: in vitro; tested at: 200 nM; added: Cy3 exosite-II aptamer, 400 nM; reading: higher = stronger binding; endpoint: mean fluorescence intensity; strand: GGTTGGTGTGGTTGG
Target: Prothrombin, mature alpha-thrombin (F2, Homo sapiens, UniProt P00734)
Setting: whole 15-mer aptamer, many near background
Modification = 2'F-ANA at 1 2 4 6 8 9 15; value = 134 a.u.
Modification = 2'F-ANA at 1 2 4 5 6 8 11 13 14 15; value = 53.6 a.u.
Modification = 2'F-ANA at 3 4 6 7 9 10 14; value = 169 a.u.
Modification = 2'F-ANA at 1 2 3 4 5 6 7 9 11 12 13 14; value = 51.9 a.u.
Modification = 2'F-ANA at 3 4 10 12 14; value = 226 a.u.
Modification = 2'F-ANA at 2 3 4 5 12; value = 294 a.u.
Modification = 2'F-ANA at 1 3 6 7 11 12 13 14; value = 101 a.u.
Modification = 2'F-ANA at 1 2 3 4 6 7 12 13 15; value = 235 a.u.
Modification = 2'F-ANA at 1 2 3 5 6 7 8 11 13 14; value = 47.5 a.u.
Modification = 2'F-ANA at 1 2 4 8 9 10 11 13; value = 49.1 a.u.
Modification = 2'F-ANA at 1 4 6 8 9 11 12 13; value = 142 a.u.
Modification = 2'F-ANA at 1 2 3 7 9 10 14 15; value = 52.7 a.u.
Modification = 2'F-ANA at 2 3 5 6 7 9 12 14; value = 54.5 a.u.
Modification = 2'F-ANA at 2 3 4 5 12 13 15; value = 128 a.u.
Modification = 2'F-ANA at 2 4 7 11 13; value = 216 a.u.
Modification = 2'F-ANA at 2 3 5 10 11 13 15; value = 71.4 a.u.
Modification = 2'F-ANA at 1 3 6 7 14 15; value = 86.4 a.u.
Modification = 2'F-ANA at 1 2 5 7 9 10 13 14; value = 46.2 a.u.
Modification = 2'F-ANA at 3 5 6 8 12 14 15; value = 68 a.u.
Modification = 2'F-ANA at 3 7 8 10 13 14; value = 454 a.u.
Modification = 2'F-ANA at 6 7 9 11 12; value = 591 a.u.
Modification = 2'F-ANA at 6 10 11 12 13 14 15; value = 97.8 a.u.
Modification = 2'F-ANA at 1 2 4 5 6 7 12 14; value = 45.6 a.u.
Modification = 2'F-ANA at 2 3 6 12; value = 1120 a.u.
Modification = 2'F-ANA at 2 3 5 7 8 9 10 12 13 14; value = 53.6 a.u.

Sample 3 — target: CCND1, cyclin fold, Cln2 fusion (human); method: yeast growth competition, sequencing; matrix: yeast; setting: weak parent motif; baseline: not given; reading: higher = stronger binding; endpoint: normalised enrichment score
Parent: DTL docking peptide (human); PSSMRKICTYFHR; partner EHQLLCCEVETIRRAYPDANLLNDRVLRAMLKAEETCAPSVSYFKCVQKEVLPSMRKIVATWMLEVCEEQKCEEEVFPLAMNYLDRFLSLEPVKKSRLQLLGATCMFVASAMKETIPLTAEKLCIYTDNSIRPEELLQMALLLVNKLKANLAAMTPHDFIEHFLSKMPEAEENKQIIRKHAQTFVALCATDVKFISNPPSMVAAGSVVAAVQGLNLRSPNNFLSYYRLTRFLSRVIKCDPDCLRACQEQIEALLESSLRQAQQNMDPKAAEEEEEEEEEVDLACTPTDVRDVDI
Change = PSSMRKICTYFAR [H12A]; value = 0.838
Change = PSSMRKICTYAHR [F11A]; value = 0.0405
Change = PSSMRKICTAFHR [Y10A]; value = 0.886
Change = ASSMRKICTYFHR [P1A]; value = 0.477
Change = PSSMRKICAYFHR [T9A]; value = 0.516
Change = PSSMRKACTYFHR [I7A]; value = 0.559
Change = PSSMRKIATYFHR [C8A]; value = 0.497

Sample 4 — target: CEBPB, bZIP domain (human); method: DHFR protein complementation; matrix: yeast; baseline: wild-type JUN-FOS pair; reading: higher = stronger binding; endpoint: binding fitness
Setting: single substitutions, most at no-binding floor
Parent: JUN, bZIP domain (human); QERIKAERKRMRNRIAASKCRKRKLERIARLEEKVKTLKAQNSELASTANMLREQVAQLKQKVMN; partner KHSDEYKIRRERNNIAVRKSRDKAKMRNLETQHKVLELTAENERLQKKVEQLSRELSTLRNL
Change = I28C; value = -1.3 natural log
Change = S43Y; value = -1.33 natural log
Change = K36M; value = -1.4 natural log
Change = A40M; value = -1.36 natural log
Change = S43V; value = -1.35 natural log
Change = L52H; value = -1.44 natural log
Change = E33A; value = -1.35 natural log
Change = T37H; value = -1.27 natural log
Change = M51Q; value = -1.16 natural log
Change = A29V; value = -1.32 natural log
Change = A29R; value = -1.24 natural log
Change = Q55P; value = -1.56 natural log
Change = V56T; value = -1.48 natural log
Change = E44S; value = -1.25 natural log
Change = K36T; value = -1.44 natural log
Change = A40V; value = -1.34 natural log

Sample 5 — target: UBE2V1 UBC core domain (UniProt Q13404); method: yeast two-hybrid; matrix: yeast; setting: mostly zero background; baseline: not given; reading: higher = stronger interaction; endpoint: lacZ reporter activity
UniProt Q13404, sequence (whole entry, looked up): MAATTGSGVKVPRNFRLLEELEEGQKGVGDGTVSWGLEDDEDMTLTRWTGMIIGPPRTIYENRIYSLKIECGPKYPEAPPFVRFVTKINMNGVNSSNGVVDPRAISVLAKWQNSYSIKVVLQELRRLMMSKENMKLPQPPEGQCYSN
B1: RMND5B RING domain (UniProt Q96G75); chain MKCWYHSVFACPILRQQTSDSNPPIKLICGHVISRDALNKLINGGKLKCPYCPMEQNPADGK
B2: RNF130 RING domain (UniProt Q86XS8); chain DKETDPDFDHCAVCIESYKQNDVVRILPCKHVFHKSCVDPWLSEHCTCPMCKLNILKALGIV
B3: RNF10 RING domain (UniProt Q8N5U6); chain VRICSHEVPSCPICLYPPTAAKITRCGHIFCWACILHYLSLSEKTWSKCPICYSSVHKKDLKS
B4: TRIM28 RING domain (UniProt Q13263); chain GAEALELLEHCGVCRERLRPEREPRLLPCLHSACSACLGPAAPAAANSSGDGGAAGDGTVVDCPVCKQQCFSKDIVE
B5: RNF32 RING domain (UniProt Q9H0A6); chain VQALRRETHECSICLAPLSAAGGQRVGAGRRSREMALLSCSHVFHHACLLALEEFSVGDRPPFHACPLCRSCYQKKILEC
B6: TRIM74 RING domain (UniProt Q86UV6); chain SLLELEDWLQCPICLEVFKESLMLQCGHSYCKGCLVSLSYHLDTKVRCPMCWQVVDGSSSLP
B7: RNF115 RING domain (UniProt Q9Y4L5); chain TQEQVDMGLECPVCKEDYTVEEEVRQLPCNHFFHSSCIVPWLELHDTCPVCRKSLNGEDSTR
B8: RNF17 RING domain (UniProt Q9BXT8); chain SQPWGAAEIQCTRCGRRVSRSSGHHCELQCGHAFCELCLLMTEECTTIICPDCEVATAVNTRQR
B9: MDM2 RING domain (UniProt Q00987); chain TQDKEESVESSLPLNAIEPCVICQGRPKNGCIVHGKTGHLMACFTCAKKLKKRNKPCPVCRQPIQMIVLTYFP
B10: TRIM2 RING domain (UniProt Q9C040); chain VRQIDKQFLICSICLERYKNPKVLPCLHTFCERCLQNYIPAHSLTLSCPVCRQTSILPEKGV
Molecule = B1 (RMND5B RING domain); value = 0
Molecule = B2 (RNF130 RING domain); value = 0
Molecule = FLSKVEETFQCICCQELVFRPITTVCQHNVCKDCLDRSFRAQVFSCPACRYDLGRSYAMQ (UHRF1 RING domain (UniProt Q96T88)); value = 0
Molecule = GSEEEEIPFRCFICRQAFQNPVVTKCRHYFCESCALEHFRATPRCYICDQPTGGIFNPA (RNF113B RING domain (UniProt Q8IZP6)); value = 0
Molecule = KITELNPHLMCALCGGYFIDATTIVECLHSFCKTCIVRYLETNKYCPMCDVQVHKTRPLL (PCGF2 RING domain (UniProt P35227)); value = 0
Molecule = B3 (RNF10 RING domain); value = 0
Molecule = B4 (TRIM28 RING domain); value = 0
Molecule = B5 (RNF32 RING domain); value = 0
Molecule = SNNDLASLFECPVCFDYVLPPILQCQSGHLVCSNCRPKLTCCPTCRGPLGSIRNLA (SIAH1 RING domain (UniProt Q8IUQ4)); value = 0
Molecule = B6 (TRIM74 RING domain); value = 0
Molecule = EDVLSKDAGECAICLEELQQGDTIARLPCLCIYHKGCIDEWFEVNRSCPEHPSD (ZNRF2 RING domain (UniProt Q8NHG8)); value = 0
Molecule = B7 (RNF115 RING domain); value = 0
Molecule = B8 (RNF17 RING domain); value = 0
Molecule = B9 (MDM2 RING domain); value = 0
Molecule = PLRRLQEEKLCKICMDRHIAVVFIPCGHLVTCKQCAEAVDRCPMCSAVIDFKQRVF (BIRC8 RING domain (UniProt Q96P09)); value = 0
Molecule = B10 (TRIM2 RING domain); value = 0

Some of these lines once more (sample 2):
Modification = 2'F-ANA at 1 2 4 6 8 9 15; value = 134 a.u.
Modification = 2'F-ANA at 2 3 5 6 7 9 12 14; value = 54.5 a.u.
Modification = 2'F-ANA at 2 3 4 5 12 13 15; value = 128 a.u.
Modification = 2'F-ANA at 1 2 3 4 6 7 12 13 15; value = 235 a.u.
Modification = 2'F-ANA at 3 4 10 12 14; value = 226 a.u.
Modification = 2'F-ANA at 1 2 3 5 6 7 8 11 13 14; value = 47.5 a.u.
Modification = 2'F-ANA at 2 3 5 7 8 9 10 12 13 14; value = 53.6 a.u.
Modification = 2'F-ANA at 1 2 3 7 9 10 14 15; value = 52.7 a.u.
Modification = 2'F-ANA at 6 7 9 11 12; value = 591 a.u.
